Measured values gathered from unrelated publications.
A part holds a random share of what one study measured.

Study 1
Target: Transcriptional repressor CTCF (CTCF, Homo sapiens, UniProt P49711, residues 1-727, full length assumed)
UniProt P49711, sequence (whole entry, looked up): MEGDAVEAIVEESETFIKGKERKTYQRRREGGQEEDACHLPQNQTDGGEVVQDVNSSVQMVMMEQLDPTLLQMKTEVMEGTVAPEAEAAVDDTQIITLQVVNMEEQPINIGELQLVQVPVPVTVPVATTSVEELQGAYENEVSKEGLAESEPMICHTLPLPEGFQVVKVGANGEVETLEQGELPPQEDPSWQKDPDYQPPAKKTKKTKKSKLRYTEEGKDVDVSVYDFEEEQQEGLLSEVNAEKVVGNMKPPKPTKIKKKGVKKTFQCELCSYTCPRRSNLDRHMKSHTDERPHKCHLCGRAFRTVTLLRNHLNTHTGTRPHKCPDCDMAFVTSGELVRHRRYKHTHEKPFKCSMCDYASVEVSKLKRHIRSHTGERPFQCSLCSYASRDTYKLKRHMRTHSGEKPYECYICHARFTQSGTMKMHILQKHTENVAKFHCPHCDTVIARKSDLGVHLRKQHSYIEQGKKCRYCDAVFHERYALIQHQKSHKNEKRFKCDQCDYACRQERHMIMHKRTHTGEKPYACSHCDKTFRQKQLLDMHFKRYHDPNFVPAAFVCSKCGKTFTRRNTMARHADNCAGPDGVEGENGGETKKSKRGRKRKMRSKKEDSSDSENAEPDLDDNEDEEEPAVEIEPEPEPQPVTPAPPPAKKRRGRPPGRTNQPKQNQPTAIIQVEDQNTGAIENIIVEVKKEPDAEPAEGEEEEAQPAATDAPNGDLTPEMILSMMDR
Technique: protein-binding microarray
Molecule type: double-stranded DNA, one strand shown
Sample: in vitro
Concentration: not given
Setting: k-mer, scored over probes, only values ≥0.25
Direction: higher = stronger binding
Quantity: E-score
AGATGCGC: 0.323
GTAACACA: 0.296
TAACGTAA: 0.251
TAAACGCA: 0.259
GTAATAAA: 0.307

Study 2
Target: Histone acetyltransferase KAT6A, winged helix 2, GST fusion (KAT6A, Homo sapiens, UniProt Q92794, residues 85-181)
Technique: protein binding microarray
Molecule type: double-stranded DNA, one strand shown
Sample: in vitro
Concentration: not given
Setting: 8-mer, flanks averaged, mean of 2 arrays, mostly near background
Relative to: not given
Direction: higher = stronger binding
Quantity: E-score
Construct (chain): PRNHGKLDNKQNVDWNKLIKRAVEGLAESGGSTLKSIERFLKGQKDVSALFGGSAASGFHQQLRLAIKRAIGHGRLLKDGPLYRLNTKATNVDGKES
GCTACTAA: 0.171
CGTACGTC: -0.272
ATGCCAAT: 0.00351
AATCAATG: 0.0102
AATTCCGA: 0.0713
CATTTCGG: -0.113

Study 3
Target: RNA binding protein fox-1 homolog 2, RRM domain, GST-SBP tag (RBFOX2, Homo sapiens, UniProt O43251-10, residues 100-194)
Technique: RNA Bind-n-Seq
Molecule type: RNA
Sample: in vitro
Concentration: 365 nM
Setting: natural RNA segment, single round, ends assumed
Relative to: no-protein control
Direction: higher = stronger binding
Quantity: RBNS enrichment (R)
Residues (chain): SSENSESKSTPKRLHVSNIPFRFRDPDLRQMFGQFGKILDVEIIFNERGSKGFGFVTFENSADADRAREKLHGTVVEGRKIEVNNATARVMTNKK
GGGAGUUCUACAGUCCGACGAUCCCAGCCUCCCCAGGUAGCCACCCUCGAGACACGACCUCAGAGUCUCUGUGUCUCCUAGAAGCCUGACAGAGACCCCCAGGGCAGUGGGUGGGUGGCGGGCUAGAGACCCUUGGAAUUCUCGGGUGCCAA: 0.315
GGGAGUUCUACAGUCCGACGAUCCCUGCCGUACAUGGACAUCUGUUCAACGACUCAUAUUUCAACUGUACCCGAGAGGCUAGCUAUUUAAGGGAACACAGAGGUAAAUUCUUUUGUAAAGAAUCCUUUUGUAAUGGAAUUCUCGGGUGCCAA: 0.319
GGGAGUUCUACAGUCCGACGAUCAGUGUCUGUGAUCACUAACAGGGAGUGGGCCUUGAGUCCACUCCAGAACUGUGGUGGGAGACCAAUACUCUUAACAGACUGUCCAGUAGGUAUCGGGAAUCCUUGAACAAUGGAAUUCUCGGGUGCCAA: 0.204
GGGAGUUCUACAGUCCGACGAUCACUUCACUAGAGCUAAGACACUGCUGGCAUUGUGGCCCCAUCCUUCCAAGACACAGGGAAGGAAGGCAGAGGCUCCUCAGGGCCUUAUGGUAGGCCUAGCAGGUAGAGCUUGGAAUUCUCGGGUGCCAA: 0.465

Other studies, line by line
PhoQ, residues 284 288 289 292 302 303 STVVAA — fold induction (PhoP, residues 12 14 15 18 19 STHWV (Escherichia coli, UniProt P23836); Sort-seq, item: YFP reporter; E. coli; PhoQ-PhoP variant library, with: 10 µM Mg2+; relative to: high Mg2+ state, higher = stronger signaling): 0.857

Some of these lines once more (study 2):
ATGCCAAT: 0.00351
